Assay results from different studies.
Numbers after ± are the reported error. Converted amounts (≈) assume the structure as drawn.
uncharacterized protein: uncharacterized protein (Streptococcus mutans serotype c, UniProt Q8DS94)
Sequence of UniProt P55085 (whole entry, looked up): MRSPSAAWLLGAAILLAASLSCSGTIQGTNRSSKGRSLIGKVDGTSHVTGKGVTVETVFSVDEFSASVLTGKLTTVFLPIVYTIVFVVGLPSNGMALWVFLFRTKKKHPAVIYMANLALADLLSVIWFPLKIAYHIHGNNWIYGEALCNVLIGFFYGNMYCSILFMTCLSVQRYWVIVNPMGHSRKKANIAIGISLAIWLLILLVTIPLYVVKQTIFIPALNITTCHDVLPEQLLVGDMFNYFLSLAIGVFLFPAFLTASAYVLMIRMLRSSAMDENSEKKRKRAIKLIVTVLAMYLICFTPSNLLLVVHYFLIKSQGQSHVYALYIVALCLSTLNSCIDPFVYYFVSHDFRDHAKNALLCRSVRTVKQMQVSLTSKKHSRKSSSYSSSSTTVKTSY
Sequence of UniProt P54292 (whole entry, looked up): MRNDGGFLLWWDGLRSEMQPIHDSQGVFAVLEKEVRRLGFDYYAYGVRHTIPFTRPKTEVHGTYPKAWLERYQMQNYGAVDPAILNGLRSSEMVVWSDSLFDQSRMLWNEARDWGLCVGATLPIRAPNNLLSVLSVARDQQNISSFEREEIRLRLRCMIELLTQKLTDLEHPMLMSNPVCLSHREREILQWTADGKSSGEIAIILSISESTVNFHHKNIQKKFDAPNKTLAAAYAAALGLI
Sequence of UniProt P28336 (whole entry, looked up): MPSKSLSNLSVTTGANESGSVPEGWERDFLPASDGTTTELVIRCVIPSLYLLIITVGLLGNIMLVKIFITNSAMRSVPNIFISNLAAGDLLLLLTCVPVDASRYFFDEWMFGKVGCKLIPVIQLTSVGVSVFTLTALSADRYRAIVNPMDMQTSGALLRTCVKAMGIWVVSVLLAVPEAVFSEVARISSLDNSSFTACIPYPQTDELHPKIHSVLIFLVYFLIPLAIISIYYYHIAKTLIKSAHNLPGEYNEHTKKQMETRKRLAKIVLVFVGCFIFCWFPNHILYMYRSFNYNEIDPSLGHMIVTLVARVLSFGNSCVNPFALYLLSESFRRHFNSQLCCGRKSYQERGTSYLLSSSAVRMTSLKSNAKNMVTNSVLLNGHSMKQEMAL
Sequence of UniProt P50391 (whole entry, looked up): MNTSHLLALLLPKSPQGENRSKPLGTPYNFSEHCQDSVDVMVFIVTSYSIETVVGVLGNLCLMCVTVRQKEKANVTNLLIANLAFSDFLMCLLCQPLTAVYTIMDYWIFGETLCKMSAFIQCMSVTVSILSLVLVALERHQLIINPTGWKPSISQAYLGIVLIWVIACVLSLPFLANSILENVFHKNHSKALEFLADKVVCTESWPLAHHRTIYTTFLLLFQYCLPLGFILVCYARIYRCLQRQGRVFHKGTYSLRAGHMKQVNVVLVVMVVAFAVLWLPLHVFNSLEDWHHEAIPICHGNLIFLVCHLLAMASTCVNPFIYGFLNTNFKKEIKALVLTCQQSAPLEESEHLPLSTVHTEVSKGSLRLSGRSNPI
Sequence of UniProt Q9VNB5 (whole entry, looked up): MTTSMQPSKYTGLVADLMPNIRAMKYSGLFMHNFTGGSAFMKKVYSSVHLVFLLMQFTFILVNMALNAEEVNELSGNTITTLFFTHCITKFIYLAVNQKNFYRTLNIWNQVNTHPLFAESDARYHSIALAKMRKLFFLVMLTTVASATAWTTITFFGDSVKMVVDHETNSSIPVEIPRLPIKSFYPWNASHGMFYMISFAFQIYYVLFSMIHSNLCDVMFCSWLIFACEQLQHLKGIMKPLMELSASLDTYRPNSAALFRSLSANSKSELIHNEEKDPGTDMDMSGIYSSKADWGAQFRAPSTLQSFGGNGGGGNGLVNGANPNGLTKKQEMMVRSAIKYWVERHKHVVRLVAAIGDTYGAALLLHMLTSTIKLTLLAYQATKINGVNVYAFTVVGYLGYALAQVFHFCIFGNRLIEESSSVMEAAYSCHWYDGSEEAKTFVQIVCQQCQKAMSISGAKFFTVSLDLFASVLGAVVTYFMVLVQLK

For `CCCCCCCCC(=O)NCc1ccc(O)c(OC)c1`, the IC50 was 0.223 µg/mL (≈ 0.761 µM) (mouse mAb 1-D6; antibody binding, indirect competitive ELISA; together with: coating antigen 5-OVA).
The EC50 of `CC(C)C[C@H](NC(=O)[C@H](CO)NC(=O)CNC(=O)[C@@H](N)CO)C(=O)N[C@@H](CO)C(=O)N[C@H](C(=O)N[C@@H](Cc1ccccc1)C(=O)N[C@@H](Cc1ccccc1)C(=O)N[C@@H](CCCNC(=N)N)C(=O)N[C@@H](CC(C)C)C(=O)N[C@@H](Cc1ccccc1)C(=O)N[C@@H](CC(N)=O)C(=O)N[C@@H](CCCNC(=N)N)C(=O)N[C@@H](CO)C(=O)N[C@@H](Cc1ccccc1)C(=O)N[C@H](C(=O)N[C@@H](CCC(N)=O)C(=O)N[C@H](C)C(=O)O)[C@@H](C)O)[C@@H](C)O` is reported as over 1000 nM (uncharacterized protein; Streptococcus mutans).
For `CCCC[C@H](NC(=O)CNC(=O)CNC(=O)c1ccc(NN)nc1)C(=O)N[C@H]1CC(=O)NCCCC[C@@H](C(N)=O)NC(=O)[C@H](Cc2c[nH]c3ccccc23)NC(=O)[C@H](CCCNC(=N)N)NC(=O)[C@@H](Cc2ccccc2)NC(=O)[C@H](Cc2c[nH]cn2)NC1=O` [technetium-99m labelled], the uptake was 0.24 ± 0.07 %ID/g (C57 mouse, B16/F1 melanoma, blood; 2 h, together with: NDP-MSH 6.07 nmol blockade).
The EC50 of `CC(=O)N[C@@H](CCCNC(=N)N)C(=O)N[C@@H](Cc1ccc(O)cc1)C(=O)N[C@@H](CCCN/C(N)=N/C(=O)NCCCCN)C(=O)N[C@@H](CC(C)C)C(=O)N[C@@H](CCCNC(=N)N)C(=O)N[C@@H](Cc1ccc(O)cc1)C(N)=O` is reported as 187 nM (NPY4R (Homo sapiens, UniProt P50391); calcium signal, agonist).
`CC[C@H](C)[C@H](NC(=O)[C@H](CC(C)C)NC(=O)c1ccco1)C(=O)NCC(=O)N[C@@H](CCCN=C(N)N)C(=O)N[C@@H](CC(C)C)C(=O)N[C@@H](CCCN)C(N)=O` gave an EC50 of 130 nM (F2RL1 (Homo sapiens, UniProt P55085); cell impedance response, agonist, real-time cell analysis; 16HBE14o-; 240 min).
For `CC(C)C[C@H](NC(=O)[C@H](C)NC(=O)[C@H](CCC(N)=O)NC(=O)[C@@H](NC(=O)[C@H](Cc1ccccc1)NC(=O)[C@H](CO)NC(=O)[C@H](CCCNC(=N)N)NC(=O)[C@H](CC(N)=O)NC(=O)[C@H](Cc1ccccc1)NC(=O)[C@H](CC(C)C)NC(=O)[C@H](CCCNC(=N)N)NC(=O)[C@H](Cc1ccccc1)NC(=O)[C@H](Cc1ccccc1)NC(=O)[C@@H](NC(=O)[C@H](CO)NC(=O)[C@H](CC(C)C)NC(=O)[C@H](CO)NC(=O)CNC(=O)[C@H](N)CO)[C@@H](C)O)[C@@H](C)O)C(=O)NCC(=O)N[C@@H](CCCCN)C(=O)O`, the EC50 was 140 nM (uncharacterized protein; Streptococcus mutans).
`C#Cc1cncc([C@@H]2CCCCN2)c1` gave an EC50 of 100 nM (Acetylcholine receptor subunit alpha-type acr-16 (Ascaris suum, UniProt F1KYJ9); ion current, agonist, two-electrode voltage clamp; oocytes).
With `CN[C@](C)(C[18F])C(=O)O` the tracer uptake was 2.4 %ID/g (SK-OV-3 tumour model; host not given, heart; 2 h, tumour-bearing).
With `CC(C)C[C@H](NC(=O)[C@H](C)NC(=O)[C@H](CCC(N)=O)NC(=O)[C@@H](NC(=O)[C@H](Cc1ccccc1)NC(=O)[C@H](CO)NC(=O)[C@H](CCCNC(=N)N)NC(=O)[C@H](CC(N)=O)NC(=O)[C@H](Cc1ccccc1)NC(=O)[C@H](CC(C)C)NC(=O)[C@H](CCCNC(=N)N)NC(=O)[C@H](Cc1ccccc1)NC(=O)[C@H](Cc1ccccc1)NC(=O)[C@@H](NC(=O)[C@H](CO)NC(=O)[C@@H](N)CC(C)C)[C@@H](C)O)[C@@H](C)O)C(=O)NCC(=O)N[C@@H](CCCCN)C(=O)O` the EC50 was 530 nM (uncharacterized protein; Streptococcus mutans).
For `CC(C)C[C@H](NC(=O)[C@@H]1CCC(=O)N1)C(=O)N[C@H](C(=O)N[C@@H](Cc1ccccc1)C(=O)N[C@H](C(=O)N[C@@H](CO)C(=O)N[C@@H](CO)C(=O)N[C@@H](Cc1c[nH]c2ccccc12)C(=O)NCC(N)=O)[C@@H](C)O)[C@@H](C)O`, the EC50 was 6.4 nM (Adipokinetic hormone receptor (Bombyx mori, UniProt Q8T6U9)).
`O=C(NC1CCSC1=O)C1CCC1` (centres unmarked) gave an EC50 of 1720 nM (rhlR (Pseudomonas aeruginosa, UniProt P54292); reporter gene, agonist).
Under “tumour to tissue ratio”, `N=C(N)NCCC[C@@H]1NC(=O)[C@H](CCCCNC(=O)CC[C@H](NC(=O)CCOCCOCCOCCOCCNC(=O)CC[C@H](NC(=O)CN2CCN(CC(=O)O)CCN(CC(=O)O)CCN(CC(=O)O)CC2)C(=O)NCCOCCOCCOCCOCCC(=O)N[C@@H](CCC(=O)NCCCC[C@@H]2NC(=O)[C@@H](Cc3ccccc3)NC(=O)[C@H](CC(=O)O)NC(=O)CNC(=O)[C@H](CCCNC(=N)N)NC2=O)C(=O)NCCCC[C@@H]2NC(=O)[C@@H](Cc3ccccc3)NC(=O)[C@H](CC(=O)O)NC(=O)CNC(=O)[C@H](CCCNC(=N)N)NC2=O)C(=O)NCCCC[C@@H]2NC(=O)[C@@H](Cc3ccccc3)NC(=O)[C@H](CC(=O)O)NC(=O)CNC(=O)[C@H](CCCNC(=N)N)NC2=O)NC(=O)[C@@H](Cc2ccccc2)NC(=O)[C@H](CC(=O)O)NC(=O)CNC1=O` [indium-111 labelled] is recorded as 1.46 ± 0.8 (athymic nude mice, female, U-87 MG glioma xenograft, tumour and kidney; intravenous, 24 h; baseline: tumour over kidney).
`CC[C@H](C)[C@H](NC(=O)[C@H](CC(N)=O)NC(=O)[C@H](Cc1c[nH]cn1)NC(=O)[C@@H](NC(=O)[C@@H](NC(=O)[C@H](CCCNC(=N)N)NC(=O)[C@@H](NC(=O)[C@@H](N)CCC(=O)O)[C@@H](C)CC)[C@@H](C)CC)[C@@H](C)O)C(=O)N[C@@H](Cc1ccccc1)C(=O)N[C@@H](Cc1ccccc1)C(=O)N[C@@H](CC(N)=O)C(=O)N[C@@H](Cc1ccccc1)C(=O)N[C@@H](Cc1ccccc1)C(=O)N[C@@H](CCCCN)C(=O)N[C@@H](CCCNC(=N)N)C(=O)N[C@@H](CCCNC(=N)N)C(=O)O` has an EC50 of over 10000 nM (histidine kinase ComD (Streptococcus pneumoniae serotype 2, UniProt A0A0H2ZM50); reporter gene, agonist; Streptococcus pneumoniae, D39 comX::lacZ; 30 min, pH 7.3, 37 °C).
The EC50 of `CC[C@H](C)[C@H](NC(=O)[C@H](C)NC(=O)[C@H](CCC(=O)O)NC(=O)[C@H](CC(N)=O)NC(=O)[C@@H](N)CO)C(=O)N[C@@H](CO)C(=O)N1CCC[C@H]1C(=O)N[C@@H](Cc1ccccc1)C(=O)N[C@@H](CC(=O)O)C(=O)N[C@@H](CCC(N)=O)C(=O)NCC(=O)N[C@@H](CCSC)C(=O)N[C@@H](CCSC)C(=O)NCC(=O)N[C@@H](Cc1ccc(O)cc1)C(=O)N[C@H](C(=O)N[C@H](C(=O)N[C@@H](CCCCN)C(=O)N[C@H](C(=O)N[C@@H](CC(N)=O)C(=O)N[C@@H](CCCCN)C(=O)N[C@@H](CC(N)=O)C(=O)N[C@H](C(=O)N1CCC[C@H]1C(=O)N[C@@H](CCCNC(=N)N)C(=O)N[C@@H](CCSC)C(N)=O)[C@@H](C)CC)[C@@H](C)O)[C@@H](C)CC)C(C)C` is reported as about 61 nM (Ecdysis triggering hormone receptor A (Aedes aegypti, UniProt A7J264)).
With `CSCC[C@H](NC(=O)[C@H](CC(C)C)NC(=O)[C@H](CO)NC(=O)CNC(=O)[C@@H](NC(=O)[C@H](C)NC(=O)[C@H](Cc1c[nH]c2ccccc12)NC(=O)[C@H](CC(C)C)NC(=O)[C@@H]1CCC(=O)N1)C(C)C)C(N)=O` the EC50 was 15.1 ± 0.7 nM (NMBR (Homo sapiens, UniProt P28336); inositol phosphate generation, agonist; BALB/3T3 expressing human NMBR; 45 min, 37 °C; baseline: 1 µM neuromedin B).
`N=C(N)NCCC[C@@H]1NC(=O)[C@H](CCCCNC(=O)CNC(=O)CNC(=O)CNC(=O)CC[C@H](NC(=O)CCOCCOCCOCCOCCNC(=O)CC[C@H](NC(=O)CN2CCN(CC(=O)O)CCN(CC(=O)O)CCN(CC(=O)O)CC2)C(=O)NCCOCCOCCOCCOCCC(=O)N[C@@H](CCC(=O)NCC(=O)NCC(=O)NCC(=O)NCCCC[C@@H]2NC(=O)[C@@H](Cc3ccccc3)NC(=O)[C@H](CC(=O)O)NC(=O)CNC(=O)[C@H](CCCNC(=N)N)NC2=O)C(=O)NCC(=O)NCC(=O)NCC(=O)NCCCC[C@@H]2NC(=O)[C@@H](Cc3ccccc3)NC(=O)[C@H](CC(=O)O)NC(=O)CNC(=O)[C@H](CCCNC(=N)N)NC2=O)C(=O)NCC(=O)NCC(=O)NCC(=O)NCCCC[C@@H]2NC(=O)[C@@H](Cc3ccccc3)NC(=O)[C@H](CC(=O)O)NC(=O)CNC(=O)[C@H](CCCNC(=N)N)NC2=O)NC(=O)[C@@H](Cc2ccccc2)NC(=O)[C@H](CC(=O)O)NC(=O)CNC1=O` [indium-111 labelled]: “tumour to tissue ratio” 10.4 ± 1.75 (athymic nude mice, female, U-87 MG glioma xenograft, tumour and muscle; intravenous, 1 h; baseline: tumour over muscle).
`CCCn1c(SCC(=O)N2CCc3cc(CC)ccc32)nnc1-c1cccnc1` has an EC50 of 17600 nM (Orco (Drosophila melanogaster, UniProt Q9VNB5); calcium mobilization, agonist; HEK293 expressing Orco).
